{"data": "Published values of several laboratories", "ALB": "Albumin (ALB, Homo sapiens, UniProt P02768)", "ABCB1": "ATP-dependent translocase ABCB1 (ABCB1, Homo sapiens, UniProt P08183)", "note": "Each line is one published result; not all experiments were run side by side. Several values in a cell are separate wells, animals, samples, runs or records. ± gives the spread as reported.", "chain of UniProt P08183 (whole entry, looked up)": "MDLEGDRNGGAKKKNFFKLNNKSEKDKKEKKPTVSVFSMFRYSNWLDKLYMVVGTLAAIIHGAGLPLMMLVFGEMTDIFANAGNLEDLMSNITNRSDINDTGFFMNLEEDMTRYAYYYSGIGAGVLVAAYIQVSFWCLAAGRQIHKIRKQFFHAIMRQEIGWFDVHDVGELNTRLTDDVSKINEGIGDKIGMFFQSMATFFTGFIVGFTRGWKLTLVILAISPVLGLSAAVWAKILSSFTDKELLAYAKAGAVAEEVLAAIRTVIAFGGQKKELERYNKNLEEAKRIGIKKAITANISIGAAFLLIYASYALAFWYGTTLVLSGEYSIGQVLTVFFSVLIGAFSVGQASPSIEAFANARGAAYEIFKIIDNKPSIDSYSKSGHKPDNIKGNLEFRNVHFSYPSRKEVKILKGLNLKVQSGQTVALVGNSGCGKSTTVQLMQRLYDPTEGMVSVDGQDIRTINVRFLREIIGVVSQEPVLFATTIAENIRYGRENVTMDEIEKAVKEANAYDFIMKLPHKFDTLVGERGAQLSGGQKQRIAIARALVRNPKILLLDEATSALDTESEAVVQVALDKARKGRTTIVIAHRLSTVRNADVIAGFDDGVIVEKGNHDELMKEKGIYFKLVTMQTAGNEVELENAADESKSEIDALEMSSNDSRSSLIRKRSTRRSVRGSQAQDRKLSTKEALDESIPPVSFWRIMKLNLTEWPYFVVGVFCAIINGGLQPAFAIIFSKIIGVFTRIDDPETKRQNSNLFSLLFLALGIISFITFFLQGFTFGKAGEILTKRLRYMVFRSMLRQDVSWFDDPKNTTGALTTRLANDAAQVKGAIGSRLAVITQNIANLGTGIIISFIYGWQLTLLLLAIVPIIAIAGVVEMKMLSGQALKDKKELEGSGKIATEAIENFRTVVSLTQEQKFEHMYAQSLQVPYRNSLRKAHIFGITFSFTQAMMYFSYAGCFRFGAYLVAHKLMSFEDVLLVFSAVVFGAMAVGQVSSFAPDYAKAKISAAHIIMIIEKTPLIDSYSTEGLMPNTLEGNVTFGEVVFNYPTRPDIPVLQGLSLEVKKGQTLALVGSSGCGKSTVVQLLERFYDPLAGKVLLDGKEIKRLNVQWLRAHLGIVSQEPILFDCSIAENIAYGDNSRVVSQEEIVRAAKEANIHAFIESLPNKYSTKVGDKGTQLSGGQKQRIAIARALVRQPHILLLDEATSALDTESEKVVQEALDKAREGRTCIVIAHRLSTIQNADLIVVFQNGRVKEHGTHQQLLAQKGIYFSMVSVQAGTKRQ", "chain of UniProt P11712 (whole entry, looked up)": "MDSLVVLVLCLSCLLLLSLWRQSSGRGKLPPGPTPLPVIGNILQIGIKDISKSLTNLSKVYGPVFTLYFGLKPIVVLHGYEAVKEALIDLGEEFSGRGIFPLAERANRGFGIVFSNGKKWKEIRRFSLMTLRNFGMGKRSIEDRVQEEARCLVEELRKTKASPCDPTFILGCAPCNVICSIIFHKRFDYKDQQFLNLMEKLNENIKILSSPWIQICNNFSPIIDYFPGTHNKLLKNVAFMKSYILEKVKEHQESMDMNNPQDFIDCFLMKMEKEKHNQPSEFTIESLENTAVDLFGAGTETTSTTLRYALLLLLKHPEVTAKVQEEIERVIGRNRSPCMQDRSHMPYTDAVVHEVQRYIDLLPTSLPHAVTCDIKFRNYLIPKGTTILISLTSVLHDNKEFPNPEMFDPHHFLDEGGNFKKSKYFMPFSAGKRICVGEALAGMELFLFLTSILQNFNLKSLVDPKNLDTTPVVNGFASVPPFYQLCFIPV"}
{"SMILES": "CN1CCN(c2ccc3[nH]c(-c4ccc5[nH]c(-c6ccc(OCCCCNC(=O)c7ccc8c(c7)C7(OC8=O)c8ccc(N(C)C)cc8[Si](C)(C)c8cc(N(C)C)ccc87)cc6)nc5c4)nc3c2)CC1", "target": "ALB", "test": "binding, second site, fluorescence titration", "system": "PBS", "endpoint": "Kd", "result": "> 1000 µM"}
{"SMILES": "C=CC(=O)Nc1cc(Nc2nccc(-c3cn(C)c4ccccc34)n2)c(OCC(F)(F)F)nc1N(C)CCN(C)C", "target": "CYP1A2 human", "test": "inducer", "system": "hepatocytes lot LTG", "setting": "0.1 µM", "scale": "reference: omeprazole 100 µM", "endpoint": "induction relative to positive control", "result": "2.02%"}
{"SMILES": "CNc1nc(N)nc2c1ncn2[C@@H]1O[C@H](CO)[C@@H](O)[C@@]1(C)F", "target": "ABCB1", "test": "bidirectional transport", "system": "LLC-PK1, human MDR1, transfected with", "setting": "10 µM", "endpoint": "efflux ratio", "result": "1.73 ± 0.13"}
{"SMILES": "CN1CCN(c2ccc3[nH]c(-c4ccc5[nH]c(-c6ccc(OCCCCNC(=O)c7ccc8c(c7)C(=O)OC87c8ccc(N(C)C)cc8C(C)(C)c8cc(N(C)C)ccc87)cc6)nc5c4)nc3c2)CC1", "target": "ALB", "system": "PBS", "setting": "1 µM, 1 h, added: 25 mg/mL albumin", "endpoint": "fluorescence quantum yield", "result": "0.172 ± 0.003"}
{"SMILES": "C=CC(=O)N1CC2C(=O)N(CCN(C)C)c3c(c4cc(Cl)c(-c5c(O)cccc5F)nc4n(-c4c(C)ccnc4C(C)C)c3=O)N2CC1C (stereo not shown)", "target": "ABCB1", "system": "MDCK-MDR1", "endpoint": "Papp A-B", "result": "2.1 ×10⁻⁶ cm/s"}
{"SMILES": "C/C(N)=N/C(=N\\S(=O)(=O)c1ccc(C(F)(F)F)cc1)N1C[C@H](c2ccccc2)C(c2ccc(Cl)cc2)=N1", "target": "ABCB1", "system": "MDCK-MDR1 monolayers", "setting": "5 µM, 120 min, pH 7.4", "endpoint": "Papp B-A", "result": "37.2 ×10⁻⁶ cm/s"}
{"SMILES": "CN(C)c1ccc2c(c1)C(C)(C)c1cc(N(C)C)ccc1C21OC(=O)c2ccc(C(=O)O)cc21", "target": "ALB", "test": "binding, fluorescence titration", "system": "PBS", "endpoint": "Kd", "result": "410 ± 150 µM"}
{"SMILES": "O=C1CCC(N2Cc3c(ccc(C(=O)O)c3F)C2=O)C(=O)N1 (stereo not shown)", "target": "ALB", "test": "equilibrium dialysis", "system": "human serum albumin 50 mg/mL", "setting": "6 h, 37 °C", "endpoint": "fraction unbound", "result": 0.729}
{"SMILES": "C=C(NC(=O)c1csc(-c2nc3c(cc2O)-c2nc(cs2)C(=O)NC(C(C)O)C(=O)NC(=C(C)OC)c2nc(cs2)C(=O)NC2c4nc(cs4)C(=O)NC(COC(=O)c4c5c6c(cccc6n4O)COC(=O)C(OC4CC(C)(O)C(N(C)C)C(C)O4)C2OC5)c2nc-3cs2)n1)C(N)=O (stereo not shown)", "target": "CYP2B6 human", "test": "enzyme activity, inducer", "system": "cryopreserved primary human hepatocytes", "setting": "0.1 to 6 µM, 3 days", "scale": "reference: positive control", "endpoint": "induction", "result": "< 40%"}
{"SMILES": "CNC(=O)C1CCCN(C(=O)C2CC3CCC2N3C(=O)[C@@H]2C[C@@H](O)CN2C(=O)NCc2cccc(Cl)c2F)C1 (mixture of isomers)", "target": "Cytochrome P450 2C9 (CYP2C9, Homo sapiens, UniProt P11712)", "test": "preincubation with NADPH", "system": "human", "setting": "0.617 µM", "scale": "reference: negative control", "endpoint": "remaining activity", "result": "107% and 101% and 100%"}
{"SMILES": "CN1CCN(c2ccc3[nH]c(-c4ccc5[nH]c(-c6ccc(OCCCCNC(=O)c7cccc8c7C(=O)OC87c8ccc(N(C)C)cc8[Si](C)(C)c8cc(N(C)C)ccc87)cc6)nc5c4)nc3c2)CC1", "target": "ALB", "test": "binding, fluorescence titration", "system": "PBS", "setting": "1 h", "endpoint": "Kd", "result": "15 ± 9 µM"}
{"SMILES": "CNc1nc(N)nc2c1ncn2[C@@H]1O[C@H](CO[P@](=O)(O)N[C@@H](C)C(=O)O)[C@@H](O)[C@@]1(C)F", "target": "ABCB1", "test": "bidirectional transport", "system": "LLC-PK1, human MDR1, transfected with", "setting": "10 µM, added: zosuquidar 1 µM", "endpoint": "Papp A to B", "result": "5.43 ± 1.04 ×10⁻⁶ cm/s"}
{"SMILES": "CN1CCN(c2ccc3[nH]c(-c4ccc5[nH]c(-c6ccc(OCCCCNC(=O)c7ccc8c(c7)C(=O)OC87c8ccc(N(C)C)cc8[Si](C)(C)c8cc(N(C)C)ccc87)cc6)nc5c4)nc3c2)CC1", "target": "ALB", "system": "PBS", "setting": "1 µM, 1 h, added: 25 mg/mL albumin", "endpoint": "fluorescence quantum yield", "result": "0.079 ± 0.007"}
{"SMILES": "CCCCCCCC/C=C/CCCCCCCC(=O)[O][Pt-2]1([OH])([Cl])([NH+]=C(CC)N(C)CCNc2c3ccccc3[nH+]c3ccccc23)[NH2+]CCC[NH2+]1.O=[N+]([O-])[O-].O=[N+]([O-])[O-]", "target": "human serum albumin recombinant", "system": "FBS-free medium", "setting": "added: HSA 10-fold excess", "endpoint": "protein-bound fraction", "result": "> 95%"}
{"SMILES": "C[C@@]1(F)[C@H](O)[C@@H](CO)O[C@H]1n1cnc2c(=O)[nH]c(N)nc21", "target": "ABCB1", "test": "bidirectional transport", "system": "LLC-PK1, human MDR1, transfected with", "setting": "10 µM, added: zosuquidar 1 µM", "endpoint": "Papp B to A", "result": "11.9 ± 0.6 ×10⁻⁶ cm/s"}
{"SMILES": "O=C(O)c1cccc(CN2CCCNCCNCCCNCC2)n1", "target": "Pd(II)", "test": "potentiometry and UV spectrophotometry", "system": "aqueous 1.0 M KCl", "setting": "25 °C, Pd2+ + L to PdL", "endpoint": "log overall stability constant", "result": 38.4}
{"note": "Excerpt of the above:"}
{"SMILES": "CN1CCN(c2ccc3[nH]c(-c4ccc5[nH]c(-c6ccc(OCCCCNC(=O)c7ccc8c(c7)C7(OC8=O)c8ccc(N(C)C)cc8[Si](C)(C)c8cc(N(C)C)ccc87)cc6)nc5c4)nc3c2)CC1", "target": "ALB", "test": "binding, second site, fluorescence titration", "system": "PBS", "endpoint": "Kd", "result": "> 1000 µM"}
